Measurements gathered from unrelated publications.
Numbered parts are unrelated; each lists some results of a single study.

Block 1
Target: RNA binding protein fox-1 homolog 2, RRM domain, GST-SBP tag (RBFOX2, Homo sapiens, UniProt O43251-10, residues 100-194)
Technique: RNA Bind-n-Seq
Molecule type: RNA
Sample: in vitro
Tested at: 365 nM
Setting: natural RNA segment, single round, ends assumed
Reference: no-protein control
Reading: higher = stronger binding
Constant ends, left off below: GGGAGUUCUACAGUCCGACGAUC … UGGAAUUCUCGGGUGCCAA
Construct (chain): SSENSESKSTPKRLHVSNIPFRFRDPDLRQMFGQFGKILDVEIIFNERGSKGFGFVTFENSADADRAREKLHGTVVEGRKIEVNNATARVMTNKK
Sequence | RBNS enrichment (R)
AAUAAGAUUAAUGACCUGAAUUGAAAGAGAAUUUGGAGCCAGGAUGGGUCUCCAUUCUGUGUGGCACCUUGAUUGGAAAAUAAUAUCCAUGCGUUUCUUCCACUGAGUCU | 0.517
CUUUUCAUAUAUUUUUGCUGAAGAAUAUAUGGAAAGGGUGGCAUUUGCGUCACGUGGACCAGGGACAGUGCUGAAAUCAGCAGUGCUCAGAAACAAUUUAACAUGUUGAA | 0.235
AAGUAUGGUAAUCUUUACCUGUAUACAGUGCAGAGCCUUCUCAGAAGCACAGAAUAUUUUUAUAUUUCCUUUAUGUGAAUUUUUAAGCUGCAAAUCUGAUGGCCUUAAUU | 0.283
UGCAUGAAAAUUCUGUUAGCUGUGUGGUGAACUGUCUACCCUCGCGGAUCUUGUAUUUCGUGCCGGGAUGGGGUUGAGAUAGAGAGUAUAGUGAAGAAGAGUCAAGCGUC | 6.93
GAAUGGAUCCUUUAUUUUUAAAAUAAUCAAAAUUUGAAUAAUUGCUACACAUGGUUGCUAUUUAUUUCUACAUGAAGCUUAUUCUCACUUGGAGGUUCUGAAGAUUCUGU | 0.438
UCUGAUCUUCCAUUAGACUUAGGGGUCAUGAUAUGAGUGGAAUUUACAUUUUAGAUACUAUAGGGGAAAGAAAAGUCUCAAAAAGAAGUAUUGCAUGUCUAAAAGCUAGU | 3.79
AAUGUAGAUGUUUUAAUAACAAUUUUUGUCCUUCUUAAAAUAAAAUGAGAGAAAUUUGCUUCUUUUAGCCUUUGUUCUAUAGAAUAUACGUGUGCACUAUGACUCUUGUC | 0.572
AUUGCUGGAAUACUGGUGUCUGUUAGAAUGCUUCAGACUACAGAUGUAAUUAAAGGCUUUUCUUAAUAUGUUUUAACCAAAGAUGUGGAGCAAUCCAAGCCACAUAUCUU | 1.87
CGAGGCCCAUCUCCGCAUCCCGGGCUCCUGGCUCUUGAUUUUGUCUGCCACAGACAUCCCACAAAGCCGCUGCCAUUUUAUUAAAGUGUUUUGAUCCACUUUGCACUGGA | 0.461
AUCAGAAAAGUCAUUGGCAGACAUAUAUGUCCUUGAACCUUUUUUAUUUGUGUGGAUUCUGCUCAUCACUGUCUCUGUUAGACUUAUUUUGUAGUGGCUGCAUCACAUAU | 0.576
CUGGCUUUUAAAAUAUAGAUCAGAUCAAUUUACCCGACUUCAUGAAUAAUCCUAAAUUCUCUGGAAUAAAAAACUGAUUUCUUUGUUAAUUACUUGUACGAUGAAGGAUG | 0.401
GGCAAGGUCAGAAAGAGACGGCGCUUCAGAGUUUCCUUUCCAGACACCCCUCCCCGCACUGUGAAGUUCCCCUGACCGCCCUCCUGGUUCACAAAGAGCAUUAAGAAAGC | 0.424

Block 2
Target: Interferon regulatory factor 7, full length, phosphomimetic (IRF7, Homo sapiens, UniProt Q92985, residues 1-503, S101K/S471D/S472D/S475D/S476D/S477D/S483D/S484D/S487D)
Technique: protein-binding microarray
Molecule type: double-stranded DNA, one strand shown
Sample: in vitro
Tested at: 250 nM
Setting: 60-bp whole probe
Added: salmon DNA 0.4 mg/ml
Reference: random background probes
Reading: higher = stronger binding
Constant ends, left off below: GCCTAGCAC … GTCTTGATTCGCTTGACGCTGCTG
Construct (chain): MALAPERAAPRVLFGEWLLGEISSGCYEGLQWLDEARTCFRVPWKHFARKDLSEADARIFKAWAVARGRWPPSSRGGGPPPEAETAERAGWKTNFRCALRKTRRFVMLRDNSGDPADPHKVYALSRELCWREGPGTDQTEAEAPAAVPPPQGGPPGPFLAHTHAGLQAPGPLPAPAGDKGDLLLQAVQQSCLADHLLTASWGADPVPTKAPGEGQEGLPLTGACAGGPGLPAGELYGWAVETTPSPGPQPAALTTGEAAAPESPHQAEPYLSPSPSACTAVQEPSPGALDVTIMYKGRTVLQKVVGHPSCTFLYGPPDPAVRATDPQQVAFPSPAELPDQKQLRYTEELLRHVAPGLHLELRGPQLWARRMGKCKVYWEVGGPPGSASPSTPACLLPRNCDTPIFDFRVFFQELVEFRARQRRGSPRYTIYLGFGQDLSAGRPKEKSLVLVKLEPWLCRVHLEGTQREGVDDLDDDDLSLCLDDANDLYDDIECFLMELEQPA
Sequence | log fluorescence
GACGGACTGGGTTTTCGGGACGTGCTA | -0.549 z-score
GACGGACTGGGTTTGGGGACGTGCTAG | -0.451 z-score
TGCTTTGGACCCAGGGCTAAGTGCTAG | 0.998 z-score
AACGGACTGGGACTGGGGACGTGCTAG | -0.465 z-score
GATGAACTGAGTTTCGAGACGTGCTAG | 3.32 z-score
GATGATTTCAGTTCCGAGACGTGCTAG | 0.701 z-score
TTAGGTCTCGGTATCTGTTAGTGCTAG | 2.69 z-score
TCAATTTTGGTTTTCATACTGTGCTAG | 1.25 z-score
TCACTTCTAATATTCATACTGTGCTAG | 1.02 z-score
GACGATTACAGTTCCGAGACGTGCTAG | 0.195 z-score
TTAGATATTGGGTTTCGATTAGTGCTA | 6.43 z-score
TTAGATCTCAGACAGGATTAGTGCTAG | 0.175 z-score
TTAGGTTTCCCTTCCCTTTAGTGCTAG | 3.22 z-score
TCAAGTATTTATCTGCAACTGTGCTAG | 0.21 z-score
TCAGATTTCGGGACTGGATTAGTGCTA | 0.282 z-score
GACGGTAACGGTCTCGGGACGTGCTAG | -0.231 z-score
GACGGTTTCGACACTGGGGTCGTGCTA | 3.73 z-score
TTAGGTTTCCTACTGGTTTAGTGCTAG | 0.828 z-score
TTAGGACTGGTCTATCGGTTAGTGCTA | -0.533 z-score
GCCGGTATCGGTTTCGGGACGTGCTAG | 6.93 z-score
TTAGGTTTCCTACTGCATTAGTGCTAG | 1.25 z-score
GTAGGACTGCTTTTCCTTTAGTGCTAG | 0.728 z-score
TTAGATCTCAGTCACGATTAGTGCTAG | 0.453 z-score

Block 3
Target: Hepatocyte nuclear factor 3-beta, forkhead domain (FOXA2, Homo sapiens, UniProt Q9Y261, residues 142-269)
Technique: protein-binding microarray
Molecule type: double-stranded DNA, one strand shown
Sample: in vitro
Tested at: not given
Setting: k-mer, scored over probes, only values ≥0.25
Reading: higher = stronger binding
Target sequence (chain): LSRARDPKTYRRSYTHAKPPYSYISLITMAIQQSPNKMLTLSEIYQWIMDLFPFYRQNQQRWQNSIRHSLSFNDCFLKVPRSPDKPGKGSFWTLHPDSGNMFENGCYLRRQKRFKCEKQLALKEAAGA
Sequence | E-score
ATACCATC | 0.262
ACAATCAT | 0.335
CGTATGTA | 0.26
TTAGCAAA | 0.267
ATATCATC | 0.275
ACCTGTAT | 0.302
TACGGATA | 0.339
ACCATTAA | 0.273
CGAGTATA | 0.265
AAGTAATC | 0.254
GACATATA | 0.302
ATCAATGA | 0.266
ACCAATAC | 0.28
ATCAGTAA | 0.321
ATTTGGTA | 0.304

Block 4
Target: Sal-like protein 4, full length isoform A (SALL4, Homo sapiens, UniProt Q9UJQ4, residues 1-1053)
Chain of UniProt Q9UJQ4 (whole entry, looked up): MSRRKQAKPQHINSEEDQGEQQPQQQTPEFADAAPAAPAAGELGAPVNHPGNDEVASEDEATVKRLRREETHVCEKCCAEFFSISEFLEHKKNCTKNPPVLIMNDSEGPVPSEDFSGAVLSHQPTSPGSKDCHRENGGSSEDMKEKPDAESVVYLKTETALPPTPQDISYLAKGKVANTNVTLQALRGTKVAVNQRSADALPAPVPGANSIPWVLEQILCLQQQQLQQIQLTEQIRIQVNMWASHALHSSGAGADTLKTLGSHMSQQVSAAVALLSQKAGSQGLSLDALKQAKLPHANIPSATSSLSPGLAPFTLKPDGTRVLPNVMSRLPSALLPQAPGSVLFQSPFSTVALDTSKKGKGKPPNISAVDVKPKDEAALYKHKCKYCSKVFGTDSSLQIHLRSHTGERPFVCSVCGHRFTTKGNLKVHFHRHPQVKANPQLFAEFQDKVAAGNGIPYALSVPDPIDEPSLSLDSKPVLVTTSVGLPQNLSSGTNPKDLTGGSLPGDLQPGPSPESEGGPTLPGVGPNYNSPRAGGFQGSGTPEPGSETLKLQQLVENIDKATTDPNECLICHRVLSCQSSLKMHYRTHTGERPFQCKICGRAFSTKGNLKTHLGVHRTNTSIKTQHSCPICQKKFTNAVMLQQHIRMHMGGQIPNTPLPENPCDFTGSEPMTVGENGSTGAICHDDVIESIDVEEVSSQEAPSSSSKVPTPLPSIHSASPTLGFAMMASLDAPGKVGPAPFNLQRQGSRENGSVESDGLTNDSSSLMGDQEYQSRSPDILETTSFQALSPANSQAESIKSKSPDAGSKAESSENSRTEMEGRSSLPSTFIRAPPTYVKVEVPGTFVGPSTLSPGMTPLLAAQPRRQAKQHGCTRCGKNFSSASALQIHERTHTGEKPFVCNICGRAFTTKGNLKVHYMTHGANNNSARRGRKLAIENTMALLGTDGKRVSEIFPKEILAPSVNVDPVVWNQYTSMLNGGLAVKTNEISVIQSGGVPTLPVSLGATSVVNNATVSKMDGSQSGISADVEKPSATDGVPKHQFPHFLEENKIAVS
Technique: universal PBM
Molecule type: double-stranded DNA, one strand shown
Sample: in vitro
Tested at: 600 nM
Setting: 8-mer, flanks averaged, mean of replicates
Reading: higher = stronger binding
Sequence | E-score
GAAAGCTA | -0.0509
ACGGATAC | 0.036
AAAATCAA | 0.28
CACAAAGC | -0.00301
CAGTGTGG | -0.0751
ATGCCGTA | -0.0453
CTGAGGAA | -0.00223
CTCCGTTA | 0.088
CGCCCTGA | -0.225
GCTCAACC | -0.196
GCGCCTAC | -0.15
AAGCCATC | 0.0307
GCCTGCGA | -0.263
AGGTCACG | -0.345
GCGCTACC | -0.209
CATACCAA | 0.103
ACTTATAG | 0.167
GATTTTCC | 0.0397

Block 5
Target: RING finger protein unkempt homolog, zinc fingers 1-6, GST-SBP tag (UNK, Homo sapiens, UniProt Q9C0B0, residues 30-357)
Technique: RNA Bind-n-Seq
Molecule type: RNA
Sample: in vitro
Tested at: not given
Setting: RNA with constant flanks, human and mouse sites, ends assumed
Reference: input RNA pool
Reading: higher = stronger binding
Constant ends, left off below: GGGAGUUCUACAGUCCGACGAUC … CAACAGAGGAUUGAGCAUCA
Construct (chain): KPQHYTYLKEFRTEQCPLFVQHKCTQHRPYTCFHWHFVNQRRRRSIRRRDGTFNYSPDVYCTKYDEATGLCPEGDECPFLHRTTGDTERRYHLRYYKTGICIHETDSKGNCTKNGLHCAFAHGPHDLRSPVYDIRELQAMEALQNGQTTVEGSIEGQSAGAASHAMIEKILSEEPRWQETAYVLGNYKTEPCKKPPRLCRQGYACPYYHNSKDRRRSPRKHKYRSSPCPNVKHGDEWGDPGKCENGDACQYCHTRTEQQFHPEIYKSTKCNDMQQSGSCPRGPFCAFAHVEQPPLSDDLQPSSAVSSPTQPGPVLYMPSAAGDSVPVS
Sequence | bound/input enrichment [ratio]
UGCAGAAGGCCCAGAUCGUUAAGUUAAUCAAAUUUUCAAAGGAGCAUCCUAUUACCUUAGCAAUUGGUGAUGGUGCAAAUGAUGUCAGUAUGAUCCUGGAGGCCCACGUGGGCAUAGGUG | 1.6
GGUGUCUGUGCUCAAAAGACUGCCUUCUCCAGUGCCCAGUGUAUGAGUGUGUGCCCUGUGCCCUUGUCCCUCACUCCCCACAUGCUGGACGUAGCCCUCUUCCUCGCACCCCUGGGAGGG | 0.209
ACUCCUACAGAUCUUAUCCUUUGUGUUCCUCAUCUGUAUUCCUGUCUAGAAGAUCGAAAUGGAGAUGUACGGAAGAAGGCCCAAGAUGCUUUGCCAUUCUUUAUGAUGCAUUUAGGAUAU | 0.325
UUCAUUUUUUUUUUUAAGUGGUUCUCUGCCACAAGAAAGCUUGACACAUUCUUACCAAGAACUAGCCAGGCUUCAUACUUUCUGCUGUGUUCCCGAUAUCUAUGUACUGUGAAGAACCGU | 1.2
AUUGCUAAUGCCCCGGAUGGAGCUGGGUCAUUGCCUUGCACAGAAUUGCCCCAUGACCUUUCUUUGAAGAACAUACAACCCAAAGUUGAAGAGAAAAUCAGUUUCUCAGAUGACUUUUCU | 0.149
GCCUUCUUAUUGAUUUGUGUUGUCCUGAUCUGCAUCUUCACAAAAAGCCAGCGUUUGAAGGCCGUGGUCCUUGGAGGAGCACAGGUGUGCUCCAGGGUAAUCCCGCAGUGCCUCCAGAGG | 0.11
AAGAAAGAAAUGCAGCCUACACACCCGAUUCGCCUCGGCCUGGCGCUGAAUUUCUCAGUCUUUUACUAUGAGAUUCUAAACUCUCCUGAAAAGGCCUGCAGCCUGGCCAAAACGGCAUUU | 0.141
CUCCAGACACAAGUGGCUGAGAUGUCCCGAGUCAUACGUGAUCUGCAGUCCAGGAGUUGUUUUAGAUUUCAUCAUUCUAGGCCAAGUGAGAGCUCGUCAGUUCCUUGGGAUAUCUCCAGC | 0.467
UAUGGUGCACUUUUUUCGCUAUUUAAGUUGGAUAUUUCUCUACAUUCCUGAAACAAUUUUUAGGUUUUUUUUGUACUAGAAAAUGCAGGCAGUGUUUUCACAAAAGUAACUGUACAGUGA | 1.22
CUCUUUGAAUCAUUCAAGAGUUUUGAAGGUCUCUUUUAUUUUCUGGGGUCCAUUGUUAACUUUAGUCAGGACCCAGAUGUGCACUUUAAAUAUAUUCAGGCGGCUUGCAAGACUGGGCAA | 0.68
GAAGUUCUUGCUGGACGGCCACUGUUCCCGCAUGUUCUCUGCCACAACUGUGCAGUUGAAUUUAAUUUUGGUCAGAAGGAAAAGCCAUAUUUUCCAAUACCUGAAGAGUAUACUUUCAUC | 0.0563

A few entries again (block 4):
Sequence | E-score
GCGCCTAC | -0.15
AAGCCATC | 0.0307
GCCTGCGA | -0.263
AGGTCACG | -0.345
GCGCTACC | -0.209
CATACCAA | 0.103
